Published values from different studies.
Parts stem from different laboratories: compare values within a part only. Substitutions count along the parent as printed.

Set 1
Target: CCNE1, cyclin fold, Cln2 fusion (human)
Technique: yeast growth competition, sequencing
Medium: yeast
Notes: weak parent motif
Reference: not given
Direction: higher = stronger binding
Starting sequence: SLBP docking peptide (human); ARYKRKLLINDFG
Substitution | normalised enrichment score
ARYKRKALINDFG [L7A] | -0.337
ARYKRKLLIPDFG [N10P] | 0.403
ARYKRKLMINDFG [L8M] | 0.895
ARYKRKLLQNDFG [I9Q] | -0.316
ARYKRKLLINDFN [G13N] | 0.718
ARYYRKLLINDFG [K4Y] | 0.155
AKYKRKLLINDFG [R2K] | 1.03
KRYKRKLLINDFG [A1K] | -0.866
ARYKRKLLINDFC [G13C] | 1.17
ARYKRKSLINDFG [L7S] | 0.261

Set 2
Target: Interferon regulatory factor 5, full length, phosphomimetic (IRF5, Homo sapiens, UniProt Q13568-2, residues 1-514, K96S/S451D/S453D/S456D/S462D)
Technique: protein-binding microarray
Molecule type: double-stranded DNA, one strand shown
Medium: in vitro
Tested at: 250 nM
Notes: 60-bp whole probe
With: salmon DNA 0.4 mg/ml
Reference: random background probes
Direction: higher = stronger binding
Shared flanks, not repeated: GCCTAGCAC … GTCTTGATTCGCTTGACGCTGCTG
Strand | log fluorescence [z-score]
GACGGTATCCTACTGTTGACGTGCTAG | -0.0647
GTATATATAATATATATTCATGTGCTA | 0.735
GACTGTCTCGGTATCGGGACGTGCTAG | 1.26
TTAGATCACAGTCTCGATTAGTGCTAG | 0.616
TTGTATTTGTCCCTATTTAAGTGCTAG | 0.905
TTGGGTTTCGACTTTCGGTTAGTGCTA | 10.2
GACGGAATCCTACTGCTGACGTGCTAG | -0.362
GACGGTATCGTCTATCGGGACGTGCTA | 1.66
TTAGGTTTCGGAGTGGGTTAGTGCTAG | 5.16
AGTCTCTGCAGGGAGAGAGCGTGCTAG | -0.437
GACGGTTTCGGTATCGGTACGTGCTAG | 10.5
TTAGATCTAAGACTGGATTAGTGCTAG | 0.00806
GAGGGTCTCCTTTTCCTGACGTGCTAG | -0.532
TTAGCACTGGGTATCGGTTAGTGCTAG | 4.51
TTAGGTATCGGACTAGGTTAGTGCTAG | 1.81
TCACATTTACATTTTAGACTGTGCTAG | 0.927

Set 3
Target: RING finger protein unkempt homolog, zinc fingers 1-6, GST-SBP tag (UNK, Homo sapiens, UniProt Q9C0B0, residues 30-357)
Sequence of UniProt Q9C0B0 (30-357, looked up): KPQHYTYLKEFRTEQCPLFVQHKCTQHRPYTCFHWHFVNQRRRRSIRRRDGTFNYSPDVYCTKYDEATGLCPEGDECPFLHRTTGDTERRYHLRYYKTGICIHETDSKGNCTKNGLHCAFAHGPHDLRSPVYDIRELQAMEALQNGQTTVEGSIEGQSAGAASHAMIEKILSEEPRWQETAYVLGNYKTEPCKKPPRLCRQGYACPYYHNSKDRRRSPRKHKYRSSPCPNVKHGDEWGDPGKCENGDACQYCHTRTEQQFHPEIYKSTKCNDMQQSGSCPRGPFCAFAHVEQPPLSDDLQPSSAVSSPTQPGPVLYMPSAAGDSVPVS
Technique: RNA Bind-n-Seq
Molecule type: RNA
Medium: in vitro
Tested at: not given
Notes: RNA with constant flanks, human and mouse sites, ends assumed
Reference: input RNA pool
Direction: higher = stronger binding
Shared flanks, not repeated: GGGAGUUCUACAGUCCGACGAUC … CAACAGAGGAUUGAGCAUCA
Strand | bound/input enrichment [ratio]
GUUUUUAUACAGCCUCAAAUUGUUUUAUUAAAAAAAAAAAGAUUAAAAAAUGGUGAUGCUUAGCAGCAGUUUGUAUAAGCUCCUAGUGUCAACUCCAUGGGACUGAUGGCUUUGCUCAUU | 1.25
GCCAGCCACUCGGAGCUAAUCCACAAUCUCCGCAAAAAUGGAAUCAUCAAGACAGAUAAAGUAUUUGAAGUGAUGCUGGCUACAGACCGCUCCCACUAUGCAAAAUGUAACCCAUACAUG | 0.135
UAUUAGUGUUGUACCAGCCUAUUAACCUCUUGUCUGUGCACAGCUUCAAAUGUUACCGUCUAGUUAGAUUUUUAUUUAAAAUAUGAAAAACUGCUUUUCCCAAGAUGUUUUUUAAAAACA | 146
UUUCAUCUUCUGGAGUUAGAAAAGGUCCACGAACUAUGUGAUAACUUCUGCCACCGGUACAUUAGCUGUUUGAAGGGAAAAAUGCCCAUUGACCUCGUGAUUGAUGAGAGAGAUGGAAGC | 0.451
CUUAAUGGCUUGGAACCAGAAAAUAUCCACAUGAUGAUAGGCUCAAUGACAAUCGACUGUUUGGGAAUCCUGAAUGACCUCUCUGACUGUGAAGAUAAACUCUUUCCUAUUGGAUACCAG | 0.225
AAAAGUGAGGAUUUGGGGAAAUCAUCAAGAUCGAAAACAGAGAGAGAUGAUAGAUAUUGUAGCUACUCAAAACUUGAACGAGAUACUCGGUAUGUAUCUUCCCGAUGUCGGUCCGAAAGA | 0.124

Single results of other studies
Substance | target | test | test system | conditions | how to read | quantity | result
PhoQ, residues 284 288 289 292 302 303 SVHLDV | PhoP, residues 12 14 15 18 19 NQCAL (Escherichia coli, UniProt P23836) | Sort-seq, measured: YFP reporter | E. coli | PhoQ-PhoP variant library, with: 10 µM Mg2+ | reference: high Mg2+ state, higher = stronger signaling | fold induction | 18.3

A few entries again (set 3):
Strand | bound/input enrichment [ratio]
CUUAAUGGCUUGGAACCAGAAAAUAUCCACAUGAUGAUAGGCUCAAUGACAAUCGACUGUUUGGGAAUCCUGAAUGACCUCUCUGACUGUGAAGAUAAACUCUUUCCUAUUGGAUACCAG | 0.225
AAAAGUGAGGAUUUGGGGAAAUCAUCAAGAUCGAAAACAGAGAGAGAUGAUAGAUAUUGUAGCUACUCAAAACUUGAACGAGAUACUCGGUAUGUAUCUUCCCGAUGUCGGUCCGAAAGA | 0.124
